{"data": "Assay results pooled from the literature", "note": "Parts stem from different laboratories: compare values within a part only."}
{"data": "Series 1", "target": "RING finger protein unkempt homolog, zinc fingers 1-6, GST-SBP tag (UNK, Homo sapiens, UniProt Q9C0B0, residues 30-357)", "technique": "RNA Bind-n-Seq", "molecule type": "RNA", "medium": "in vitro", "concentration": "not given", "notes": "RNA with constant flanks, human-mouse chimeric sites, ends assumed", "reference": "input RNA pool", "reading": "higher = stronger binding", "shared flanks, not repeated": "GGGAGUUCUACAGUCCGACGAUC … CAACAGAGGAUUGAGCAUCA", "sequence of UniProt Q9C0B0 (30-357, looked up)": "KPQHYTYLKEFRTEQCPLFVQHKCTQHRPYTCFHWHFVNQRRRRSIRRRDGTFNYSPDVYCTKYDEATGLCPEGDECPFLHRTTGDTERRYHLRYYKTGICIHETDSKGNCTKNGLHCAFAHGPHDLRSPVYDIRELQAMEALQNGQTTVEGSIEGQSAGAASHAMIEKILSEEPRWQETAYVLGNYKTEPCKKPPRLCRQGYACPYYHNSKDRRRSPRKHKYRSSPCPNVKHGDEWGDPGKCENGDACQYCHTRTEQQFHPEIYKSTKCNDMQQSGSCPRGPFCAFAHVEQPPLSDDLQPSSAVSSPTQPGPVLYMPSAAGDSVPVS"}
{"Strand": "AAAGAACUACUGAGGCAAGGCAGCAAAUUUAGGAGAGAUGUAUCAACAAUAUUGAUAGAGUUAGGAUUCCAAAUUAAAAAAAAAACUAAGACAUUAUACAUCAACAAAGCCAAUGUGUGG", "bound/input enrichment [ratio]": 17.1}
{"Strand": "GAUAAGAAAAGCUUGUUGGAGACCCGCUUGCAUGUCACUGGUAGAGACCUGAGGUGUAAAAUAGCUGAAACUUUCGGACUUCAAGAAAAUUACAUCAAGAUCGUAAUAAAUAAGAAACAG", "bound/input enrichment [ratio]": 0.338}
{"Strand": "AUGGAGAAGGAUUCUCUGCCUCGCUUUGUGCGCUCUGAAUUUUAUAAGGAGCUAAUCAAGUAGUCAUCUGGUCAGGCUUCCAAAAGUUCCUGUGAGUGUUGAGUUACAUCCUUUGUAGCA", "bound/input enrichment [ratio]": 0.322}
{"Strand": "GCUGAAAAUGAAGAAGAGGCAGCUGAUGUCUGGUACAACCUGGGGCACAUAGCUGUGGGAAUCGGAGAUACAAACUUGGCCCAUCAGUGCUUCAGGCUGGCCCUGGUCCACAACAACCAC", "bound/input enrichment [ratio]": 0.161}
{"Strand": "GAUAAGAAAAGCUUGUUGGAGACCCGCUUGCAUGUCACUGGUAGAGAACUGAGGUCCCAAAUAGCUGAAACUUUCGGAUUUCAAGAAAAUUACAUCAAAAUUGUCAUAAAUAAGAAACAG", "bound/input enrichment [ratio]": 1.01}
{"Strand": "GCUCCUCCCCGCUCUGCAGCCUGGGGACACUGGGCUGGGACCAGAAUCCAGCUUUCUUUUAAAACUCUCAGUGUAACUUCUUUUUCUGACAUUUCAUUUUUUUUUUAUAGUGUAUUUUUU", "bound/input enrichment [ratio]": 17.8}
{"Strand": "AAAUUUCCCCUCCUGAGACCUCCUCCGAAGUUGGAGUCUCUUACAGAUGGUUCAUCUCCUGUUAGCGUUUUAGUUUGGACCACCCAGCCUUGGACAAUUCCCGCCAACCAGGCAAUUUGC", "bound/input enrichment [ratio]": 0.731}
{"Strand": "GGCCUGGGACCGUCCUGGCUAGUGCAAAAUAGCGGCAGUGGAGGCUCGAGAGGAAAGUUUGUUAGUGGAGGCAGUGGUAGAGGCCGUCAUGUACGGUCCUUUACUCGAUAGAUGUGUUCU", "bound/input enrichment [ratio]": 0.937}
{"data": "Series 2", "target": "Sal-like protein 4, full length isoform A (SALL4, Homo sapiens, UniProt Q9UJQ4, residues 1-1053)", "technique": "universal PBM", "molecule type": "double-stranded DNA, one strand shown", "medium": "in vitro", "concentration": "600 nM", "notes": "8-mer, flanks averaged, mean of replicates", "reading": "higher = stronger binding", "sequence of UniProt Q9UJQ4 (whole entry, looked up)": "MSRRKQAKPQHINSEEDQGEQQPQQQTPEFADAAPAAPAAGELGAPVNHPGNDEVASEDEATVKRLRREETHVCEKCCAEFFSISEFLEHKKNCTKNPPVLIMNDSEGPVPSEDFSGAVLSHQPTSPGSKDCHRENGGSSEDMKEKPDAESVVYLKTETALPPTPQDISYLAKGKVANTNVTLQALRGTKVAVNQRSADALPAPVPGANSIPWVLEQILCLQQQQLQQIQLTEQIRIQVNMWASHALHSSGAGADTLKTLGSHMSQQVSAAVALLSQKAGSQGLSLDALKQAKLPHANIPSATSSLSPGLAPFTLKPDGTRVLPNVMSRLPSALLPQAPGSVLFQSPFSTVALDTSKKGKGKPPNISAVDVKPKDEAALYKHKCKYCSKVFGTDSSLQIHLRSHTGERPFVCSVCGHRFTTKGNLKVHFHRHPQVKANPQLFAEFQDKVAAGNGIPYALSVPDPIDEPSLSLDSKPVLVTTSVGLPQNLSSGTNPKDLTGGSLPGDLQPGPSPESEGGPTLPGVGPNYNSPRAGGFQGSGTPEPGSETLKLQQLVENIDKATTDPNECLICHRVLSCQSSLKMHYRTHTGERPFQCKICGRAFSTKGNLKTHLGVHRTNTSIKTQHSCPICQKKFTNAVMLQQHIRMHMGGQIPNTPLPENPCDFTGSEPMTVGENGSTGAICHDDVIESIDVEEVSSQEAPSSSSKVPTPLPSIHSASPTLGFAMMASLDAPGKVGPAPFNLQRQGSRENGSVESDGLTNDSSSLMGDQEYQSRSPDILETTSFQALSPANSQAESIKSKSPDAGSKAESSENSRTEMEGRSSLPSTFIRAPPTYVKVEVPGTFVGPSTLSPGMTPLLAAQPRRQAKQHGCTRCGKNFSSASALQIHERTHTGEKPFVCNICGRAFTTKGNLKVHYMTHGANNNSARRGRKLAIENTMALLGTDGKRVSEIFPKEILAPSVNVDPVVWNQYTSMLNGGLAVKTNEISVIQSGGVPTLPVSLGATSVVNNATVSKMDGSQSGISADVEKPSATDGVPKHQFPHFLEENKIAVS"}
{"Strand": "ATCCATAG", "E-score": 0.0405}
{"Strand": "GGGTACGA", "E-score": -0.221}
{"Strand": "AGCTCTAC", "E-score": -0.165}
{"Strand": "CTGGCAAC", "E-score": -0.199}
{"Strand": "ACAAATCG", "E-score": 0.013}
{"Strand": "AATAATGA", "E-score": 0.34}
{"Strand": "CCTACACA", "E-score": 0.0611}
{"Strand": "ATTTAAAC", "E-score": 0.254}
{"data": "Series 3", "target": "Replicase polyprotein 1ab, polymerase (rep, Severe acute respiratory syndrome coronavirus 2, UniProt P0DTD1)", "effect on": "enzyme activity", "mode": "inhibitor", "concentration": "20 µM"}
{"SMILES": "CCc1oc2ccccc2c1C(=O)c1ccc(OCC(=O)O)cc1", "inhibition [%]": 5.47}
{"SMILES": "CNC1CCCN(c2c(F)cc3c(=O)c(C(=O)O)cn(C4CC4)c3c2OC)C1 (centres unmarked)", "inhibition [%]": -3.31}
{"SMILES": "CCOc1ccccc1O[C@H](c1ccccc1)[C@H]1CNCCO1", "inhibition [%]": -5.1}
{"SMILES": "CC(C)c1cc2c(cc1S(=O)(=O)O)[C@@]1(C)CCC[C@@](C)(C(=O)O)[C@@H]1CC2", "inhibition [%]": -1.74}
{"SMILES": "CN(Cc1ccc(C(C)(C)C)cc1)Cc1cccc2ccccc12", "inhibition [%]": -2.08}
{"SMILES": "O=c1cc[nH]c(=S)[nH]1", "inhibition [%]": -4.35}
{"SMILES": "COc1ccc(-c2coc3cc(O)cc(O)c3c2=O)cc1", "inhibition [%]": -4.07}
{"SMILES": "N=C(N)c1ccc(N2CCN(C3CCN(CC(=O)O)CC3)CC2)cc1", "inhibition [%]": -2.58}
{"SMILES": "O=S(=O)(O)c1cc(I)c(O)c2ncccc12", "inhibition [%]": -0.54}
{"SMILES": "Nc1cccc2c1C(=O)N(C1CCC(=O)NC1=O)C2=O (centres unmarked)", "inhibition [%]": 4.07}
{"SMILES": "C[C@@H]1CN(c2c(F)c(F)c3c(=O)c(C(=O)O)cn(C4CC4)c3c2F)C[C@H](C)N1", "inhibition [%]": -3.18}
{"SMILES": "COC(=O)CCc1ccc(OCC(O)CNC(C)C)cc1 (centres unmarked)", "inhibition [%]": -4.5}
{"SMILES": "C/C(=C(\\CCOP(=O)(O)O)SC(=O)c1ccccc1)N(C=O)Cc1cnc(C)nc1N", "inhibition [%]": -3.76}
{"SMILES": "CCSC(=N)N", "inhibition [%]": 0.64}
{"SMILES": "c1ccc(C2CC2)c(OCC2=NCCN2)c1", "inhibition [%]": -20.1}
{"SMILES": "Cc1ncc([N+](=O)[O-])n1C", "inhibition [%]": 2.93}
{"SMILES": "O[C@H]([C@H](O)[C@@H]1CO1)[C@H]1CO1", "inhibition [%]": -1.57}
{"SMILES": "CC(C)C[C@@H](NC(=O)[C@H](Cc1ccccc1)NC(=O)CNC(=O)[C@@H](C)NC(=O)[C@@H](N)Cc1ccc(O)cc1)C(=O)O", "inhibition [%]": -1.27}
{"SMILES": "O=C(O)C1=CCCN(CCON=C(c2ccccc2)c2ccccc2)C1", "inhibition [%]": -3.28}
{"SMILES": "CC(=O)N1CCC(NC(=O)c2ccc(F)cc2)CC1", "inhibition [%]": 1.18}
{"SMILES": "C[C@]12CCC(=O)C=C1CC[C@@H]1[C@@H]2[C@@H](O)C[C@@]2(C)[C@H]1CC[C@]2(O)C(=O)COP(=O)(O)O", "inhibition [%]": 30.2}
{"SMILES": "CCN(CC)CCOC(=O)c1ccc(N)cc1", "inhibition [%]": 27.6}
{"SMILES": "Cc1cc(Nc2cc(CN3CCOCC3)c3nc(C)c(Cc4ccc(Cl)cc4F)n3n2)n[nH]1", "inhibition [%]": -4.79}
{"SMILES": "N[C@@H](Cn1oc(=O)[nH]c1=O)C(=O)O", "inhibition [%]": -0.77}
{"SMILES": "Cn1cnc2c(F)c(Nc3ccc(Br)cc3F)c(C(=O)NOCCO)cc21", "inhibition [%]": -1.63}
{"data": "Series 4", "target": "Max dimerization protein 1, bHLH-zipper, MAX partner unstated (MXD1, Homo sapiens, UniProt Q05195, residues 56-136)", "technique": "protein-binding microarray", "molecule type": "double-stranded DNA, one strand shown", "medium": "in vitro", "concentration": "not given", "notes": "k-mer, scored over probes, only values ≥0.25", "reading": "higher = stronger binding", "Construct (chain)": "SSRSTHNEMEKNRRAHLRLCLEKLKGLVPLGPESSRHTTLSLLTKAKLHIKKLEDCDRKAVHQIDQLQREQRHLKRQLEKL"}
{"Strand": "CATGTCCA", "E-score": 0.376}
{"Strand": "CCAACACG", "E-score": 0.301}
{"Strand": "CCACGTCC", "E-score": 0.265}
{"Strand": "ACGTGACG", "E-score": 0.321}
{"Strand": "CAACGTGC", "E-score": 0.453}
{"Strand": "GCATGAGC", "E-score": 0.298}
{"Strand": "AAGAAGGG", "E-score": 0.263}
{"data": "Series 5", "cell line": "HEK-293T/ACE2", "concentration": "concentration not given", "time": "16 (unit not given)", "reference": "vehicle"}
{"SMILES": "COC(=O)/C=C/C(=O)OC", "viability": "104%"}
{"SMILES": "COc1ccc2c(c1)c(CC(=O)O)c(C)n2C(=O)c1ccc(Cl)cc1", "viability": "101%"}
{"SMILES": "COCCc1ccc(OCC(O)CNC(C)C)cc1 (centres unmarked)", "viability": "105%"}
{"data": "Other studies, line by line"}
{"Structure (SMILES)": "CC(C)n1cnc(-c2ccc(F)cc2)c1-c1ncc(C(=O)Nc2ccc(N3CCN(C)CC3)cc2)[nH]1", "assay": "phase 2a clinical trial", "test system": "patients with idiopathic pulmonary fibrosis", "conditions": "60 mg once daily", "endpoint": "patients with reproductive TEAE", "value": "0%"}
{"Structure (SMILES)": "COCCCOc1ccnc(C[S+]([O-])c2nc3ccccc3[nH]2)c1C (centres unmarked)", "target or system": "Replicase polyprotein 1ab, main protease (rep, Severe acute respiratory syndrome coronavirus 2, UniProt P0DTD1)", "assay": "enzyme activity, inhibitor", "conditions": "20 µM, hit confirmation", "endpoint": "inhibition", "value": "94.2%"}
{"note": "A few entries again (series 1):"}
{"Strand": "GAUAAGAAAAGCUUGUUGGAGACCCGCUUGCAUGUCACUGGUAGAGAACUGAGGUCCCAAAUAGCUGAAACUUUCGGAUUUCAAGAAAAUUACAUCAAAAUUGUCAUAAAUAAGAAACAG", "bound/input enrichment [ratio]": 1.01}
{"Strand": "GAUAAGAAAAGCUUGUUGGAGACCCGCUUGCAUGUCACUGGUAGAGACCUGAGGUGUAAAAUAGCUGAAACUUUCGGACUUCAAGAAAAUUACAUCAAGAUCGUAAUAAAUAAGAAACAG", "bound/input enrichment [ratio]": 0.338}
{"Strand": "GGCCUGGGACCGUCCUGGCUAGUGCAAAAUAGCGGCAGUGGAGGCUCGAGAGGAAAGUUUGUUAGUGGAGGCAGUGGUAGAGGCCGUCAUGUACGGUCCUUUACUCGAUAGAUGUGUUCU", "bound/input enrichment [ratio]": 0.937}
{"Strand": "AAAUUUCCCCUCCUGAGACCUCCUCCGAAGUUGGAGUCUCUUACAGAUGGUUCAUCUCCUGUUAGCGUUUUAGUUUGGACCACCCAGCCUUGGACAAUUCCCGCCAACCAGGCAAUUUGC", "bound/input enrichment [ratio]": 0.731}
{"Strand": "AAAGAACUACUGAGGCAAGGCAGCAAAUUUAGGAGAGAUGUAUCAACAAUAUUGAUAGAGUUAGGAUUCCAAAUUAAAAAAAAAACUAAGACAUUAUACAUCAACAAAGCCAAUGUGUGG", "bound/input enrichment [ratio]": 17.1}
{"Strand": "AUGGAGAAGGAUUCUCUGCCUCGCUUUGUGCGCUCUGAAUUUUAUAAGGAGCUAAUCAAGUAGUCAUCUGGUCAGGCUUCCAAAAGUUCCUGUGAGUGUUGAGUUACAUCCUUUGUAGCA", "bound/input enrichment [ratio]": 0.322}
{"Strand": "GCUGAAAAUGAAGAAGAGGCAGCUGAUGUCUGGUACAACCUGGGGCACAUAGCUGUGGGAAUCGGAGAUACAAACUUGGCCCAUCAGUGCUUCAGGCUGGCCCUGGUCCACAACAACCAC", "bound/input enrichment [ratio]": 0.161}
{"Strand": "GCUCCUCCCCGCUCUGCAGCCUGGGGACACUGGGCUGGGACCAGAAUCCAGCUUUCUUUUAAAACUCUCAGUGUAACUUCUUUUUCUGACAUUUCAUUUUUUUUUUAUAGUGUAUUUUUU", "bound/input enrichment [ratio]": 17.8}
